Experimental data gathered from unrelated publications.
A part holds a random share of what one study measured. Positions count from the first letter of the parent shown.

Sample 1 — target: CCNA1, cyclin fold, Cln2 fusion (human); method: yeast growth competition, sequencing; sample: yeast; notes: weak parent motif; baseline: not given; direction: higher = stronger binding; measurement: normalised enrichment score
Starting sequence: PKN2 docking peptide (human); VSAVQKLDFSDTM
F9G: 0.354
V4N: 0.119
A3H: 0.406
Q5R: 0.815

Sample 2 — method: RNA Bind-n-Seq; molecule type: RNA; sample: in vitro; tested at: 365 nM; baseline: no-protein control; direction: higher = stronger binding; measurement: RBNS enrichment (R)
Target: RNA binding protein fox-1 homolog 2, RRM domain, GST-SBP tag (RBFOX2, Homo sapiens, UniProt O43251-10, residues 100-194)
Notes: natural RNA segment, single round, ends assumed
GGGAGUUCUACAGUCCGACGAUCAAUGCCAUUAUUUGAUUAUACCAUUUUGAGGGUGAAUAUGGCUAGGCACUUUAGAUAAGCCUUUUUAAAAUUCUUUCUGAUUUUAAAUAAUGCGUCAAAAAAUGUGCAGAUGGAAUUCUCGGGUGCCAA: 0.632
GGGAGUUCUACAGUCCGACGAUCAAUCAUUUUUGUUUAACUGAGGAUAUCUAGUGUCUGCUUCAUAGGGUGCUUUGAAAUAUAAAAUGAAAACUUAUUUAUACUGUUUUUACAACAGUCAAAAAGGAAACACAUGGAAUUCUCGGGUGCCAA: 0.697
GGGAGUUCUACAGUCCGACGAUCGAAACUUGCUGUGUCCAGUGCUGCUUGAAGUGCUAAUAAUGUUAAAGACACUUAAGAAGAUGAAAUAAUAUUCAAAUUUCAUUUUUUCCUUUUUCCAUUUAUCUGUGGAAUGGAAUUCUCGGGUGCCAA: 0.542
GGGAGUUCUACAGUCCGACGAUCACCACUUAACAUCCGUACUGUUUGUUAUAUAUUUCUCCCGACCCUACUCCCCACUCCUGCCACCAAGCACAUCCGGUCUAGGGGUUCCUCACUCUCUUUCAUUUAGCUGCUGGAAUUCUCGGGUGCCAA: 0.648
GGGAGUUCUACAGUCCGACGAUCGCCUCUUCACACACCGUCUGCCUGCCUGCUUCCUUCUGAGAAUAUUUUCCCAGUAUCUCCAGGCCUUCCUUAGUCUGUCCCACCGUGCAUCUGCUUACCUCAUGGCGCUGUGGAAUUCUCGGGUGCCAA: 1.11

Sample 3 — method: DHFR PCA, deep sequencing; sample: yeast; together with: (+)-ABA 1.4 µM; baseline: wild-type fitted maximum; direction: higher = stronger binding; measurement: relative binding score
Target: ABI1, truncated, D143A, DHFR fusion (Arabidopsis thaliana)
Notes: methotrexate growth selection, single substitutions
Starting sequence: PYL1, truncated, DHFR fusion (Arabidopsis thaliana); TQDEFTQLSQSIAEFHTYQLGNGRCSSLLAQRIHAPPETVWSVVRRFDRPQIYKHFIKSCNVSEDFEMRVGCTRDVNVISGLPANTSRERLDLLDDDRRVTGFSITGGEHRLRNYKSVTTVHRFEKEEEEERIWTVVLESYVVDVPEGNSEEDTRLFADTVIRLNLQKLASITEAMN; partner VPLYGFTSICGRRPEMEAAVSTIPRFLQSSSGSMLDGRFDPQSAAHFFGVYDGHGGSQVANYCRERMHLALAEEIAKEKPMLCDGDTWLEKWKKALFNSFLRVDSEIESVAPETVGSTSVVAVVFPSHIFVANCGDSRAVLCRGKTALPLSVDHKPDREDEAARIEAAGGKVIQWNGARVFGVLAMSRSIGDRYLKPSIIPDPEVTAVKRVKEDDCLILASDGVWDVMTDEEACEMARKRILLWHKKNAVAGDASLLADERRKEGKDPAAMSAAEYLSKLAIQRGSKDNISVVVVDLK
T101Y: 19.6%
Y141N: -5.67%
N177R: 30.9%

Further values, each from its own experiment
PhoQ, residues 284 288 289 292 302 303 ALSMDL  fold induction (PhoP, residues 12 14 15 18 19 DLLYY (Escherichia coli, UniProt P23836); Sort-seq, measured: YFP reporter; E. coli; PhoQ-PhoP variant library, together with: 10 µM Mg2+; baseline: high Mg2+ state, higher = stronger signaling): 1.4

Excerpt of the above (sample 1):
A3H: 0.406
F9G: 0.354
